Earlier results that unrelated publications cite.
Numbers after ± are the reported error.
Chain of UniProt C7FF04 (whole entry, looked up): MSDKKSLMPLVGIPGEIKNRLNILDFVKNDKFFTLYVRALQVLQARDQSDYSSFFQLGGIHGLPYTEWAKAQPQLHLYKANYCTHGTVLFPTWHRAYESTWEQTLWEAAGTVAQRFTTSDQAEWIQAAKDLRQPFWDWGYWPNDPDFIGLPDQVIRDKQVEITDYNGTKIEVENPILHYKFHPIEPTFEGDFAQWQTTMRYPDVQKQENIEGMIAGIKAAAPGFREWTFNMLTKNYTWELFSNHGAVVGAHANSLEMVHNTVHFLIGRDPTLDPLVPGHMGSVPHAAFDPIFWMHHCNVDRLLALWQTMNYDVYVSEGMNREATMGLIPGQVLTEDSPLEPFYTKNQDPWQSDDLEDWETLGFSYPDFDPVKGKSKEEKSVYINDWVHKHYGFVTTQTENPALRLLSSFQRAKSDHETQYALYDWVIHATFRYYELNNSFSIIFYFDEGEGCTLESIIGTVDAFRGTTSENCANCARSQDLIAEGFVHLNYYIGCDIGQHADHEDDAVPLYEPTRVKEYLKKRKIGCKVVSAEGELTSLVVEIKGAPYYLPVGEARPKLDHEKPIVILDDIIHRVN

Cc1ccc(C(C)C)c(O)c1/C=N/N=C1/SC(CC(=O)O)C(=O)N1c1ccccc1 (stereo not shown)  IC50 (COX-2): 58 nM
CC(C)(C)C(=O)NC(C(=O)NO)c1ccc(-c2ccsc2)cc1 (stereo not shown)  Ki (Plasmodium falciparum aminopeptidase M1; inhibitor): 640 nM
N#CC1=C(N)Oc2c(oc(CO)cc2=O)C1c1ccc(OCc2ccc(F)cc2)cc1 (stereo not shown)  Ki (tyrosinase; enzyme activity, inhibitor): 7570 nM
CC(C)C[C@H](NC(=O)OCc1ccccc1)C(=O)N[C@@H](C[C@@H]1CCNC1=O)C(O)S(=O)(=O)O (stereo partly shown)  IC50 (Replicase polyprotein 1ab, 3C-like proteinase (Feline coronavirus, UniProt Q98VG9); enzyme activity, inhibitor, FRET): 490 ± 70 nM
C[C@@H](Nc1c(-c2c(F)cc(C#CCCO)cc2F)c(Cl)nc2ncnn12)C(C)(C)C  total α-tubulin level (HEK293; 1 µM, 4 h, unit not given; relative to: vehicle (DMSO)): 0.98 ± 0.04
O=C1N=C(Nc2nc(-c3ccccc3)cs2)S/C1=C/c1ccc(Cl)cc1  inhibition (COX-2; inhibitor; concentration not given): 34%
O=C(O)COc1ccc(Br)cc1C=NNC(=O)Cc1ccccc1 (mixture of isomers)  IC50 (COX-2): 60 ± 10 nM
COc1cc2c(cc1OC)C(=O)C(N1CCN(CCO)CC1)CC2 (stereo not shown)  IC50 (MurA (Escherichia coli); enzyme activity, inhibitor): 3100 nM
COc1cccc(Cn2cc(-c3cccc(NC(=O)Nc4ccc(Br)cc4)c3)nn2)c1  IC50 (IDO1; enzyme activity): 750 nM
O=C(O)COc1ccc(Br)cc1/C=N/NC(=O)c1ccccc1  IC50 (COX-2): 80 ± 10 nM
CN(C)CCCOc1cc(F)c(-c2c(Cl)nc3ncnn3c2NCC2CCC2)c(F)c1  acetylated α-tubulin level (HEK293; 1 µM, 4 h, unit not given; relative to: vehicle (DMSO)): 1.49 ± 0.18
O=C(O)COc1ccc(Br)cc1/C=N/NC(=O)c1ccc(Cl)cc1  IC50 (COX-2): 60 ± 10 nM
CC(O)CSc1nnc(-c2cc3ccccc3o2)n1-c1ccccc1 (stereo not shown)  IC50 (PPO3 (Agaricus bisporus, UniProt C7FF04); enzyme activity, inhibitor): 4520 ± 90 nM

A few entries again:
N#CC1=C(N)Oc2c(oc(CO)cc2=O)C1c1ccc(OCc2ccc(F)cc2)cc1 (stereo not shown)  Ki (tyrosinase; enzyme activity, inhibitor): 7570 nM
CC(C)C[C@H](NC(=O)OCc1ccccc1)C(=O)N[C@@H](C[C@@H]1CCNC1=O)C(O)S(=O)(=O)O (stereo partly shown)  IC50 (Replicase polyprotein 1ab, 3C-like proteinase (Feline coronavirus, UniProt Q98VG9); enzyme activity, inhibitor, FRET): 490 ± 70 nM
